Measurements gathered from unrelated publications.
Lines come from different studies, so protocols differ.

Compound	organism	effect on	method	strain	time	quantity	value
CCCCCCNCc1ccc(Oc2ccc(Cl)cc2O)c(Cl)c1	Mycobacterium tuberculosis	–	–	mc2 5855	–	MIC	5 µg/mL
CN[C@@H]1[C@H](O)[C@H](NC)[C@H]2O[C@]3(O)[C@H](O[C@@H]2[C@H]1O)O[C@H](C)C[C@H]3NC(=O)Cc1cc(Cl)ccn1	Mycobacterium tuberculosis	–	–	MDR clinical isolates	–	MIC	1 µg/mL
COc1ccc2ncc(F)c(C[C@H](O)[C@H]3OC[C@H](NCc4ccc5c(n4)NC(=O)CO5)CO3)c2c1	Mycobacterium tuberculosis	–	–	H37Rv rpoB S450L mutant	–	MIC	0.125 µg/mL
CCOc1cc(/C=N/NC(=O)c2ccncc2)ccc1OC(=O)CN1C(=O)CSC1=O	Mycobacterium tuberculosis	–	Alamar blue	MDR 210	–	MIC	18.1 µM
CN[C@@H]1[C@H](O)[C@H](NC)[C@H]2O[C@]3(O)[C@H](O[C@@H]2[C@H]1O)O[C@H](C)C[C@H]3NC(=O)Cc1cscn1	Mycobacterium tuberculosis	–	–	MDR clinical isolates	–	MIC	2 to 4 µg/mL
NC(=S)N/N=C/c1ccc(OC(=O)/C=C2\SC(=O)NC2=O)cc1	Mycobacterium tuberculosis	–	Alamar blue	MDR 210	–	MIC	31.6 to 45.7 µM
CN[C@@H]1[C@H](O)[C@H](NC)[C@H]2O[C@]3(O)[C@H](O[C@@H]2[C@H]1O)O[C@H](C)C[C@H]3NC(=O)Cc1ccc(Cl)cn1	Mycobacterium tuberculosis	–	–	MDR clinical isolates	–	MIC	1 µg/mL
COc1ccc2nccc(CC[C@H]3OC[C@H](NC(=O)c4ccc(Cl)cc4)CO3)c2c1	Mycobacterium tuberculosis	–	–	H37Rv gyrA D94K mutant	–	MIC	4 µg/mL
COc1c(N2CC3CCCNC3C2)c(F)cc2c(=O)c(C(=O)OCc3cnc([N+](=O)[O-])s3)cn(C3CC3)c12 (stereo not drawn)	Mycobacterium tuberculosis	–	–	XDR	–	MIC	0.25 µM
COc1ccc2ncc(F)c(C[C@H](O)[C@H]3OC[C@H](NCc4ccc(Cl)c(Cl)c4)CO3)c2n1	Mycobacterium tuberculosis	–	–	H37Rv rpoB S450L mutant	–	MIC	0.125 µg/mL
Oc1cc(Cn2ccnn2)ccc1Oc1ccc(Cl)cc1Cl	Mycobacterium tuberculosis	–	–	mc2 5855	–	MIC	5 µg/mL
CC(=O)N[C@H]1[C@H]([C@H](O)[C@H](O)CO)OC(C(=O)O)=C(C/C=C/c2ccc(C)cc2)[C@@H]1O	Influenza A virus	viral replication	–	A/Paris/1170/2007 (H1N1)	72 h	EC50	40 µM
O=C(CN1C(=O)CSC1=O)Oc1ccc(/C=N/NC(=S)Nc2cccc(Cl)c2)cc1Cl	Mycobacterium tuberculosis	–	Alamar blue	MDR 210	–	MIC	31.6 to 45.7 µM
C[C@]12CC[C@H](OC(=O)C3CC3)[C@@](C)(COC(=O)C3CC3)C1C[C@H](O)[C@@]1(C)Oc3cc(-c4cccnc4)oc(=O)c3[C@H](O)C21 (stereo partly drawn)	Halyomorpha halys	–	radioligand binding	–	–	Kd	0.00405 µM
COc1ccc2ncc(F)c(C(O)C[C@H]3OC[C@H](NCc4ccc5c(c4)OCCO5)CO3)c2c1 (stereo partly drawn)	Mycobacterium tuberculosis	–	–	H37Rv gyrA D94K mutant	–	MIC	16 µg/mL
C=CCC1=C(C(=O)O)O[C@@H]([C@H](O)[C@H](O)CO)[C@H](NC(C)=O)[C@H]1O	Influenza A virus	viral replication	–	A/Paris/1170/2007 (H1N1)	72 h	EC50	2200 µM
O=C(CN1C(=O)CSC1=O)Oc1ccc(/C=N/NC(=O)c2cccnc2)cc1Br	Mycobacterium tuberculosis	–	Alamar blue	MDR 210	–	MIC	268 to 1160 µM
COc1ccc2nccc(CC[C@H]3OC[C@H](NC(=O)c4ccc(Cl)c(Cl)c4)CO3)c2c1	Mycobacterium tuberculosis	–	–	H37Rv gyrA D94K mutant	–	MIC	1 µg/mL

A few entries again:
Compound	organism	effect on	method	strain	time	quantity	value
Oc1cc(Cn2ccnn2)ccc1Oc1ccc(Cl)cc1Cl	Mycobacterium tuberculosis	–	–	mc2 5855	–	MIC	5 µg/mL
COc1ccc2nccc(CC[C@H]3OC[C@H](NC(=O)c4ccc(Cl)c(Cl)c4)CO3)c2c1	Mycobacterium tuberculosis	–	–	H37Rv gyrA D94K mutant	–	MIC	1 µg/mL
